# Published values from different studies.
# A part holds a random share of what one study measured. Substitutions count along the parent as printed.

# Set 1
# Target: RING finger protein unkempt homolog, zinc fingers 1-6, GST-SBP tag (UNK, Homo sapiens, UniProt Q9C0B0, residues 30-357)
# Sequence of UniProt Q9C0B0 (30-357, looked up): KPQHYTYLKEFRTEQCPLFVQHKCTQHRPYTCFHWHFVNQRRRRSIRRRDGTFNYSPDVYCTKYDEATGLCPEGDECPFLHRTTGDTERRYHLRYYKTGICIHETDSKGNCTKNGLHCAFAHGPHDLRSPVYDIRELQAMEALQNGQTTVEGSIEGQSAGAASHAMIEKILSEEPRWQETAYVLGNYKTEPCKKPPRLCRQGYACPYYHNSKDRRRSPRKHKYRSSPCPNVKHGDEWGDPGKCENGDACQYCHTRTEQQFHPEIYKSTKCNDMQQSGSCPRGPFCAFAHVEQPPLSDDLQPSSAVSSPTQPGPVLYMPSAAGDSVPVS
# Technique: RNA Bind-n-Seq
# Molecule type: RNA
# Sample: in vitro
# Concentration: not given
# Setting: RNA with constant flanks, ends assumed
# Baseline: input RNA pool
# Reading: higher = stronger binding
Oligonucleotide,bound/input enrichment [ratio]
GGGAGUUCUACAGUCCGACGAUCAAUGCUUGUUGGGUGCAUAAACAUUUCACAGAGGAUAUCCAGACACGUCAGUAUAGGUCCACCGAGGUUUUAAUAGGAGCAGGCUACAGCACACCUGCAGACAUUUGGAGUACAGCUUGCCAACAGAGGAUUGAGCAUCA,0.659
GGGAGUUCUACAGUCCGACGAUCUUUAAAGGUUUUUUUUUUUUAAUUUAAUUUUUCCUUUUGGGGGUAAAGUUUGCUCUACCAAACCGUGAUUGUAACAAAUUGAUCUGUUUUGGAUGUUGCUAUAGUGACAUGCAGUUAUAUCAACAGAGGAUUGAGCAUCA,1.14
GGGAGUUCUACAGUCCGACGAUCGCCCAUGAGAAGCUAGACAAUAAGAAGGAGUGUUUAGAAGACGUCACUGCUGUGUGUAUAUCCGAAGGGUUUCAAAAUGAGCAGAGCAUGCUGUUAGCUGAUAAAGUUCUUAAACUUCUUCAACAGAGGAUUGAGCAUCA,0.278
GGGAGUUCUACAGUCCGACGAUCGCAGUCUUGUACUGUGACCUAAGAACAAAACUGUAACUGCAUUAGAAACCAUGAAAAAAUCCGAUAUUGUUUUGUGACUUUUAGACAGUGGUAAAUAUAGAACCAUGAAUUCUGGUCACACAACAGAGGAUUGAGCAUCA,3.03
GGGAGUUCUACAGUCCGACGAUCAUCACCAUGUUGGAGGCAGCCUUGGGACUGGAGCGAGCUCACAUGGGAAUGUUCACAGAGCCCGCUAUUUUGUAUUCUAAAUUCAAGCCACAGAAAAUGAGAGAACACCUGGAGUUGUUCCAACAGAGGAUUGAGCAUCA,0.222
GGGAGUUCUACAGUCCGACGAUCAUGAUAUAAAACAUUUUGUGUUUCAUCUACCCAUUCAGCAAGAAUGAGUCCAGUCCCAUGUUCCGAUUAUUUUAACAUAAUUUGUGAAUGAUAGUUUCACAUUUGGCUGAUGGUUUGCAGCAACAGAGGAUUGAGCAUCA,0.335

# Set 2
# Target: CCNF, cyclin fold, Cln2 fusion (human)
# Technique: yeast growth competition, sequencing
# Sample: yeast
# Setting: strong parent motif
# Baseline: not given
# Reading: higher = stronger binding
# Parent: E2F1 docking peptide (human); PPVKRRLDFETDH; partner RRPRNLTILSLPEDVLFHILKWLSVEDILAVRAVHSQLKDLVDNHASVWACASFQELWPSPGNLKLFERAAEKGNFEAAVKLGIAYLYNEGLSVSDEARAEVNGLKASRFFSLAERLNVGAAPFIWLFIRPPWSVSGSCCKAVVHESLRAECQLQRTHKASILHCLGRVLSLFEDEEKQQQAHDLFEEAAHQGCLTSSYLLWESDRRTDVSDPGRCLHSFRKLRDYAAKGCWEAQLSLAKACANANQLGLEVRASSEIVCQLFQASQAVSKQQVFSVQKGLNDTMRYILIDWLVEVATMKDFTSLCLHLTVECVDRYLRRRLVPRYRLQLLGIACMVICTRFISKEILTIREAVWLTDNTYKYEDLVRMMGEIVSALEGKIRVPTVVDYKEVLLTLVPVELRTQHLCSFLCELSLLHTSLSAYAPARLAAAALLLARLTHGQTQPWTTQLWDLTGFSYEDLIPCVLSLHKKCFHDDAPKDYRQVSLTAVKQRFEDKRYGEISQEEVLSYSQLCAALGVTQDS
Variant,normalised enrichment score
R5K,6.97
T11V,7.22
R6Q,6.95
T11Q,7.13
D12V,8
D12R,7.85
P2A,7.82

# Set 3
# Target: Sal-like protein 4, full length isoform A (SALL4, Homo sapiens, UniProt Q9UJQ4, residues 1-1053)
# Sequence of UniProt Q9UJQ4 (whole entry, looked up): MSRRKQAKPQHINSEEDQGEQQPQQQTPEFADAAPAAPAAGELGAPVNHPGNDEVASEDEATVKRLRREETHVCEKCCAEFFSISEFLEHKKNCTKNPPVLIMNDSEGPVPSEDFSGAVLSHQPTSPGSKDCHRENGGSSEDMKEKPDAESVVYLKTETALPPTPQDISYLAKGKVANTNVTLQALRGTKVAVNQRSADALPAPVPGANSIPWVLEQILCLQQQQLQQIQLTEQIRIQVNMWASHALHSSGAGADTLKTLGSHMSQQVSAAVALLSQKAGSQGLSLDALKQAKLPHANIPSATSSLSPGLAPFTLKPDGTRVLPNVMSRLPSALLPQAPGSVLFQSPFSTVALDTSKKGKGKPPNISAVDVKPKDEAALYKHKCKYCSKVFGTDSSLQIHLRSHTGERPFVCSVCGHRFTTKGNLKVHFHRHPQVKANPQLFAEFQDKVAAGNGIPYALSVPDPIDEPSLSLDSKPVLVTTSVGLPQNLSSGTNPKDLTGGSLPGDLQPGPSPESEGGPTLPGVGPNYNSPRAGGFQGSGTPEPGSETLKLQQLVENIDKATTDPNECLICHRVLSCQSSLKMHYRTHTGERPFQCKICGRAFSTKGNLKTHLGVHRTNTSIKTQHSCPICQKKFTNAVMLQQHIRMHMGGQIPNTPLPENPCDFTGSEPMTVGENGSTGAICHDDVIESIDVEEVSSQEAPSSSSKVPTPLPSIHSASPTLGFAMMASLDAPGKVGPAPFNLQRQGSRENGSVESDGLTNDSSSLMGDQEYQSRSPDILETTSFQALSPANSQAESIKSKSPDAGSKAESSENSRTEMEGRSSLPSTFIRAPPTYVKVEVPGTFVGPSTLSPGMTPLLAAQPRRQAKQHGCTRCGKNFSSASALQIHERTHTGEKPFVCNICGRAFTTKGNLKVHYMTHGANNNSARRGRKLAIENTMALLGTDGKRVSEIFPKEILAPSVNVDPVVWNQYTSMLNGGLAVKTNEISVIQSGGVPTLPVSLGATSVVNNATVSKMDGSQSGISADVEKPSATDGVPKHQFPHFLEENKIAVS
# Technique: universal PBM
# Molecule type: double-stranded DNA, one strand shown
# Sample: in vitro
# Concentration: 600 nM
# Setting: 8-mer, flanks averaged, mean of replicates
# Reading: higher = stronger binding
Oligonucleotide,E-score
ATACGCGG,-0.0909
ATGTTCCC,-0.0188
CGGCGACG,-0.37
ACGAAATA,0.226
CCCGCTCA,-0.336
ATTAGTGA,0.281
ACAAATAA,0.315
CGATTCAA,-0.00343
TGTGTGAA,0.17
CATGCTGG,-0.204
CGTACGAG,-0.073

# Further values, each from its own experiment
Substance,target,test,test system,setting,how to read,measurement,value
"PhoQ, residues 284 288 289 292 302 303 GNNTDL","PhoP, residues 12 14 15 18 19 GQALL (Escherichia coli, UniProt P23836)","Sort-seq, measured: YFP reporter",E. coli,"PhoQ-PhoP variant library, with: 10 µM Mg2+","baseline: high Mg2+ state, higher = stronger signaling",fold induction,3.44

# Repeated from above (set 3):
Oligonucleotide,E-score
TGTGTGAA,0.17
CATGCTGG,-0.204
CGTACGAG,-0.073
